# Assay results gathered from unrelated publications.
# Protocols differ between the studies behind these lines. “And” joins repeats or separate records; there may be more than shown. ± gives the spread as reported.
# CASP10: Caspase-10 (CASP10, Homo sapiens, UniProt Q92851)
# Chain of UniProt Q92851 (whole entry, looked up): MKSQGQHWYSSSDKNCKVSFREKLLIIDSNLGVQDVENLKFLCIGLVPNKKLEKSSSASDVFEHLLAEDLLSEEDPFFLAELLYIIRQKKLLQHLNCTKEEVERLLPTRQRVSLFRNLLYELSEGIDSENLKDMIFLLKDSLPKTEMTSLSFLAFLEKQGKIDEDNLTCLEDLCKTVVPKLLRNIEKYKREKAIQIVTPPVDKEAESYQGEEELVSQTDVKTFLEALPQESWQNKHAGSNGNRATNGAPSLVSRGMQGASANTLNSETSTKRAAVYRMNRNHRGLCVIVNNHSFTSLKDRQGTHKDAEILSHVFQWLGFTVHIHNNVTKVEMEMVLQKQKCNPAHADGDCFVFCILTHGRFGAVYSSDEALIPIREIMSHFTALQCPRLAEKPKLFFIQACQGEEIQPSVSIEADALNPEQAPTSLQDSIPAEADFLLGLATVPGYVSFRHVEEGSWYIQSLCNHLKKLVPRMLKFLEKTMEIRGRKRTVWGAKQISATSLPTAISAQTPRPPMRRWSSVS
# HSD3B1: 3 beta-hydroxysteroid dehydrogenase/Delta 5-->4-isomerase type 1 (HSD3B1, Homo sapiens, UniProt P14060)
# Chain of UniProt P14060 (whole entry, looked up): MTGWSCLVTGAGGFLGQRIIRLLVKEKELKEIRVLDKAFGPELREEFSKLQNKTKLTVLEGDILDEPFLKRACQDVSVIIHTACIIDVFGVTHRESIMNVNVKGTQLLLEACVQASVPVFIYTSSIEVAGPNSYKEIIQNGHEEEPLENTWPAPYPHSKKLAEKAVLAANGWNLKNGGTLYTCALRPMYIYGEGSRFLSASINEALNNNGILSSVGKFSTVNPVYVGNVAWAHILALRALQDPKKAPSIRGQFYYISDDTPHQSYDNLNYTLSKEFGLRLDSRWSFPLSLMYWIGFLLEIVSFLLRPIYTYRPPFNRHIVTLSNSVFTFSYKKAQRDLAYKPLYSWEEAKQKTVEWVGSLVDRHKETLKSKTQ
# CASP8: Caspase-8 (CASP8, Homo sapiens, UniProt Q14790)
# Chain of UniProt Q14790 (whole entry, looked up): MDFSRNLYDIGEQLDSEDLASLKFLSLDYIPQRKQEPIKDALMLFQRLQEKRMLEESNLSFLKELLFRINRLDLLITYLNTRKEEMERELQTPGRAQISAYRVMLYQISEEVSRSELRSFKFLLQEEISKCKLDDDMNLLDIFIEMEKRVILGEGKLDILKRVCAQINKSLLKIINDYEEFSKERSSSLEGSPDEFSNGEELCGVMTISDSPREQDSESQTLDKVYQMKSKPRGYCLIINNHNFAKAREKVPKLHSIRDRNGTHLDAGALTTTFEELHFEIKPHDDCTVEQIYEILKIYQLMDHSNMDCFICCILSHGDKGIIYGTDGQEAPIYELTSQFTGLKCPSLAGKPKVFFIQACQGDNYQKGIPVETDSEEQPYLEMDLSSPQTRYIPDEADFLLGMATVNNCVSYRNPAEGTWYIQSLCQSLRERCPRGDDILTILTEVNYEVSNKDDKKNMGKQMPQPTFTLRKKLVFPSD
# T1: DNA, abasic bulge, mismatch; chain GTCCAGTGCAACG; chain CGTTGCGGCTGGAC
# Chain of UniProt Q13148 (whole entry, looked up): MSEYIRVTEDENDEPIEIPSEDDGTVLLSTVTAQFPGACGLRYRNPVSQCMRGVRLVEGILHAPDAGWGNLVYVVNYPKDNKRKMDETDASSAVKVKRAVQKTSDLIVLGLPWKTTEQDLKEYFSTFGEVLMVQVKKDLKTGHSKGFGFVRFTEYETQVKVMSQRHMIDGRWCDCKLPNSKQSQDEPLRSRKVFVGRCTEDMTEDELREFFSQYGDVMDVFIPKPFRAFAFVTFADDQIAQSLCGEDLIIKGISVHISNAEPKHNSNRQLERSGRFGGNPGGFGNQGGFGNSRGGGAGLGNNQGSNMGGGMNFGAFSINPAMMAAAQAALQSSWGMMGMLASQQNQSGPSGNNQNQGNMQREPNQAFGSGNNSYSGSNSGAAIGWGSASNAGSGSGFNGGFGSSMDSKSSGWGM
# Chain of UniProt P29275 (whole entry, looked up): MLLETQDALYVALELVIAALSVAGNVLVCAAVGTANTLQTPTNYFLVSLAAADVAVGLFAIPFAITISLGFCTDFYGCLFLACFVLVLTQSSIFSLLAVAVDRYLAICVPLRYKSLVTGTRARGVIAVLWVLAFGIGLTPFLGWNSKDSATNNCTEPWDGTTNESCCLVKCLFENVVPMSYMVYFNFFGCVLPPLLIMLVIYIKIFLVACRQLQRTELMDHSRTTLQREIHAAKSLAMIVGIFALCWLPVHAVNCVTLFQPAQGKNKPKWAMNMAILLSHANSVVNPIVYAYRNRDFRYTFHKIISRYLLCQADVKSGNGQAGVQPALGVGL
# Chain of UniProt P55060 (whole entry, looked up): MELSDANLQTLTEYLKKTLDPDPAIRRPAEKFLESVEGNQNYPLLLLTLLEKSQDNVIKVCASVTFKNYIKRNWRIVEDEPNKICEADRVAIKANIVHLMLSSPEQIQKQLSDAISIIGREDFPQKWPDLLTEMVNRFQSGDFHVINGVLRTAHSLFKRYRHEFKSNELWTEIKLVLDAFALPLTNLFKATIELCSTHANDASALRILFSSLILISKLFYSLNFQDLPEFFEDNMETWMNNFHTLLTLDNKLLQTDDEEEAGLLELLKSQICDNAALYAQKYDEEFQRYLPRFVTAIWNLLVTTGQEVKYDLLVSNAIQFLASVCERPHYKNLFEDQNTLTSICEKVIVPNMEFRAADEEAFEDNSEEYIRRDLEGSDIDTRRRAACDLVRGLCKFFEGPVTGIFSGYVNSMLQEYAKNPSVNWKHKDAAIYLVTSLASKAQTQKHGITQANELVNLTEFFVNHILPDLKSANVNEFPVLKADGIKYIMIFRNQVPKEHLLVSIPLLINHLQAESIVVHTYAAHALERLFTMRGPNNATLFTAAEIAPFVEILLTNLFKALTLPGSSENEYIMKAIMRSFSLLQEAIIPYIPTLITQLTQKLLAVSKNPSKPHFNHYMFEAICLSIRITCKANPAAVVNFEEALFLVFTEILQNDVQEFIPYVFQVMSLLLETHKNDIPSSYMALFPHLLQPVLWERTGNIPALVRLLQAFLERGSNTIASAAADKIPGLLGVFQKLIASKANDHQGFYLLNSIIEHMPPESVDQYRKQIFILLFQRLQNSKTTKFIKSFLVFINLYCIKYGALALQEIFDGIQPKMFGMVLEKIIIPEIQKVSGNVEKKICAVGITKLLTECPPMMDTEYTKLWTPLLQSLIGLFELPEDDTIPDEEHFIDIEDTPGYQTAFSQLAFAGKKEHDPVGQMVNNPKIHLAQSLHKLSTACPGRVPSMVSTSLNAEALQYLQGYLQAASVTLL
# Chain of UniProt P51589 (whole entry, looked up): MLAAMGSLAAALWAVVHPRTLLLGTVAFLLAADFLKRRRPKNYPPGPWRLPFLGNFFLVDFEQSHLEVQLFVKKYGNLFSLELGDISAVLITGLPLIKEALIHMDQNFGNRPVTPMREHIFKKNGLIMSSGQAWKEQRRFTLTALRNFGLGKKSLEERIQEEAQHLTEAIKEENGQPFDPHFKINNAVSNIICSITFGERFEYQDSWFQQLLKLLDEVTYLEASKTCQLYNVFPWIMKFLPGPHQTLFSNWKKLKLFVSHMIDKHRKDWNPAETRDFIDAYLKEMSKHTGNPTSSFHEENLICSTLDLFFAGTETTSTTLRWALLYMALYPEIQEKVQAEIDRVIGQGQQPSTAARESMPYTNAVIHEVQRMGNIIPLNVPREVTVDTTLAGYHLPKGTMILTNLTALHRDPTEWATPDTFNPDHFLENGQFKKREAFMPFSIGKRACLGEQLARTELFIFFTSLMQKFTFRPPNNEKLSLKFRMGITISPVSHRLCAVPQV
# Chain of UniProt Q9HB29 (whole entry, looked up): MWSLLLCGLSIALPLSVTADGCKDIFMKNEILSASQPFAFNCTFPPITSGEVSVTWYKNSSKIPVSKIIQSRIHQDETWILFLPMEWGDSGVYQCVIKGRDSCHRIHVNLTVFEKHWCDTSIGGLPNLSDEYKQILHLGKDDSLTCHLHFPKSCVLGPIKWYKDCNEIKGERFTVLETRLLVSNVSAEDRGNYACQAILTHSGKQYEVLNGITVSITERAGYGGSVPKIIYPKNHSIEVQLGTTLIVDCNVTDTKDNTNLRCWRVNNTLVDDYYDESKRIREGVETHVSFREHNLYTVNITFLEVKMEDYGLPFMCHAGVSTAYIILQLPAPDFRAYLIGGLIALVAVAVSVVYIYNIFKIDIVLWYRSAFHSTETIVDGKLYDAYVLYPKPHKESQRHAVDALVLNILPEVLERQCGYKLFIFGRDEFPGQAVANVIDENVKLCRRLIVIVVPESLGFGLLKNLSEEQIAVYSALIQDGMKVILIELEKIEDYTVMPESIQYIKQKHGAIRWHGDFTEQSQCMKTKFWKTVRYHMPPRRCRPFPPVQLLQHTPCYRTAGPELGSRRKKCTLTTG
# Chain of UniProt O75874 (whole entry, unmodified, looked up): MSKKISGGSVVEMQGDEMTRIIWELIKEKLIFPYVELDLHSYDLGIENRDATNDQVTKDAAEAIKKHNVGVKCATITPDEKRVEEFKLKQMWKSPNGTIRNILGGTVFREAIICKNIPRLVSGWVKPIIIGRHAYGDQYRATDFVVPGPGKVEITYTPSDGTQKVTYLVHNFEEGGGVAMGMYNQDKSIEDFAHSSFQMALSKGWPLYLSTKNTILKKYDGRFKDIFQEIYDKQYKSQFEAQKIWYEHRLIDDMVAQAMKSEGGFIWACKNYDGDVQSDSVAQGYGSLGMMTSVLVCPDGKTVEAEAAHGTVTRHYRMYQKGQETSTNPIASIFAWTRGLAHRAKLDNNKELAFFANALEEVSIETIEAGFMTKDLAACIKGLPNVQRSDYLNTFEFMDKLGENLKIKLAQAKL
# Chain of UniProt P48426 (whole entry, looked up): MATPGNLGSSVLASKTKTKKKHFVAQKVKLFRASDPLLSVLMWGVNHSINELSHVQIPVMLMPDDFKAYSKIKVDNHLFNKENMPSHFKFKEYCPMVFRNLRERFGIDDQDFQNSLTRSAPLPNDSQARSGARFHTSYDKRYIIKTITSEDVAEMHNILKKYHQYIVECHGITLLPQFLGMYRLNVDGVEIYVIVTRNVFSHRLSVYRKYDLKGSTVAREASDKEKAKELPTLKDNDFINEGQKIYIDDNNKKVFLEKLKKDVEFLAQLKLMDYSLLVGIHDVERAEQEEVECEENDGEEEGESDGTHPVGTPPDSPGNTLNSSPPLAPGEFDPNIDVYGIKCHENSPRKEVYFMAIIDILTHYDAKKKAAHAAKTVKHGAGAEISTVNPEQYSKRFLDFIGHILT
SMILES,target,test,system,conditions,how to read,measurement,result
C#CCOC(=O)[C@@]1(C)C=C(C(=O)OC(C)(C)C)C(=O)CC1,"Mitogen-activated protein kinase 1 (MAPK1, Homo sapiens, UniProt P28482)","enzyme activity, D-SENSOR",,"1.646 µM, mean of replicates",,normalized kinase activity,1.04
CC(=O)N[C@@H](CC(=O)O)C(=O)N[C@H](C(=O)N[C@@H](C)C(=O)N[C@@H](CC(=O)O)C(=O)COC(=O)c1c(C)cccc1C)[C@@H](C)OCc1ccccc1,CASP10,"enzyme activity, inhibitor",,,,kinact/KI,304000 M⁻¹ s⁻¹
CC[C@H](C)[C@H](NC(=O)[C@@H](NC(=O)[C@@H](NC(=O)[C@@H](NC(=O)[C@H](CCCCN)NC(=O)[C@H](CCC(=O)O)NC(=O)[C@H](C)N)C(C)C)C(C)C)C(C)C)C(=O)N[C@H](C(=O)N[C@@H](CCCCN)C(N)=O)[C@@H](C)O,"Microtubule-associated protein tau, PHF6* peptide (MAPT, Homo sapiens, UniProt P10636)","fibril formation, ThT fluorescence",,"5-fold of peptide, 240 min, pH 7.4, with: Ac-PHF6* 25 µM, heparin",relative to: untreated,ThT fluorescence,3 ± 1%
Cc1cc(C)cc(COc2cc3c(cc2OCc2cc(C)cc(C)c2)C2CC(O)(Cc4cn(CCOCCOCCNC(=O)CCCCC5SCC6NC(=O)NC65)nn4)CC(C)N2CC3)c1 (centres unmarked),"Importin subunit alpha-1 (Homo sapiens, UniProt P52292)","biotinylated probe pull-down, measured: KPNA2",,10 µM probe,relative to: heavy over light,SILAC ratio,1.7
Cc1cnc2nc1Nc1cccc(c1)COC/C=C/COCc1cc(ccc1OCCN1CCOCC1)N2,"Epidermal growth factor receptor (EGFR, Homo sapiens, UniProt P00533)",,,concentration not given,,percent of control,77%
[2H]c1c(NS(C)(=O)=O)c([2H])c2c(C(=O)c3ccc(OCCCN(CCCC)CCCC)cc3)c(CCCC)oc2c1[2H],"Cytochrome P450 2J2 (CYP2J2, Homo sapiens, UniProt P51589)",inactivator,,with: astemizole substrate,,KI,3.63 ± 1.39 µM
N#Cc1ccccc1-c1coc2cc(O)ccc2c1=O,HSD3B1,[3H]-DHEA conversion,LNCaP,"0.1 µM, normalized to protein, unit not given",relative to: vehicle,DHEA metabolism,0.17
OCC1OC(n2cnc3c(NCc4ccc(Br)s4)ncnc32)C(O)C1O (centres unmarked),"Equilibrative nucleoside transporter 1 (SLC29A1, Homo sapiens, UniProt Q99808)","binding, [3H]NBMPR radioligand binding",U-937 cells,,,Hill coefficient,0.78
CC(=O)N[C@@H](CO)C(=O)N[C@@H](Cc1ccccc1)C(=O)N[C@@H](C)C(=O)N[C@@H](CC(=O)O)C(=O)COC(=O)c1c(C)cccc1C,CASP10,inhibitor,,recombinant enzyme,,kobs/[I],115000 M⁻¹ s⁻¹
O=c1c(-c2ccccc2F)coc2cc(O)ccc12,HSD3B1,[3H]-DHEA conversion,LNCaP,"0.1 µM, normalized to protein, unit not given",relative to: vehicle,DHEA metabolism,0.46
CCCC[C@H](NC(C)=O)C(=O)N[C@@H](CCCC(=O)O)C(=O)N1CCC[C@H]1C(=O)N[C@@H](CC(=O)O)C(=O)COC(=O)c1c(C)cccc1C,CASP10,"enzyme activity, inhibitor",,,,kinact/KI,322000 M⁻¹ s⁻¹
COc1ccccc1-c1ccncc1C(=O)Nc1nnc(OCc2ccc(Cl)cc2)s1,"DNA polymerase theta, helicase domain (POLQ, Homo sapiens, UniProt O75417)","ATPase activity, ADP-Glo",,0.008 µM,relative to: 0 µM cpd,remaining activity,67%
CC(C)[C@@H]1NC(=O)[C@H](Cc2ccccc2)NC(=O)CSC[C@@H](C(N)=O)NC(=O)[C@H](CCC(=O)O)NC(=O)[C@H](CO)NC(=O)[C@H](Cc2c[nH]c3cccc(Cl)c23)NC(=O)[C@H](C2CCCCC2)NC(=O)[C@H](C(C)C)NC(=O)[C@H](Cc2ccc(O)cc2)NC(=O)[C@H](CC(=O)O)NC(=O)[C@H](Cc2c[nH]c3ccccc23)NC(=O)[C@H](Cc2ccc(N)nc2)NC(=O)[C@H](Cc2c[nH]c3ccc(Cl)cc23)NC(=O)[C@H](CCC(=O)O)NC1=O,"Interleukin-1 receptor-like 2 (IL1RL2, Homo sapiens, UniProt Q9HB29)","reporter gene (SEAP), inhibitor, HEK-Blue IL-36R reporter",HEK-Blue IL-36R cells,"0.41 µM, 6 h, with: IL-36γ 3 ng/mL",,remaining activity,92.5%
C[n+]1cn(C2OC(COP(=O)(O)OP(=O)([O-])C(Cl)(Cl)P(=O)(O)OP(=O)(O)OCC3OC(n4cnc5c(=O)[nH]c(N)nc54)C(O)C3O)C(O)C2O)c2nc(N)nc(O)c21 (centres unmarked),"m7GpppX diphosphatase (DCPS, Homo sapiens, UniProt Q96C86)","substrate, HPLC",,"concentration not given, 15 min",,hydrolysis,0%
Cc1cn(CC(=O)N(CCNC(=O)CN(CCNC(=O)CN(CCNC(=O)CN(CCNC(=O)CN(CCNC(=O)CN(CCNC(=O)CN(CCNC(=O)CN(CCN)C(=O)Cn2cnc3c(=O)[nH]c(N)nc32)C(=O)Cn2cnc3c(N)ncnc32)C(=O)Cn2cc(C)c(=O)[nH]c2=O)C(=O)Cn2cnc3c(=O)[nH]c(N)nc32)C(=O)Cn2cc(C)c(=O)[nH]c2=O)C(=O)Cn2cnc3c(=O)[nH]c(N)nc32)C(=O)Cn2cnc3c(N)ncnc32)CC(=O)NCCN(CC(=O)NCCOCCOCC(N)=O)C(=O)Cn2cnc3c(N)ncnc32)c(=O)[nH]c1=O,complementary DNA,"duplex formation, UV melting curve fit",PBS,"1 µM, fit parameter α 0.5",,Tm,42.2 ± 0.2 °C
CC(=O)N[C@@H](CC(C)C)C(=O)N[C@@H](CCC(N)=O)C(=O)N[C@@H](CO)C(=O)N[C@@H](CC(=O)O)C(=O)COC(=O)c1c(C)cccc1C,CASP8,"enzyme activity, inhibitor",,,,kinact/KI,1.11e+06 M⁻¹ s⁻¹
CCCCCC=CC=C1C(=O)C=CC1CC=CCCCC(=O)O (centres unmarked),"Desumoylating isopeptidase 1 (DESI1, Homo sapiens, UniProt Q6ICB0)",competitive isoTOP-ABPP,Ramos soluble proteome,"100 µM, with: iodoacetamide probe","relative to: DMSO over compound-treated, higher = stronger cysteine blockade",isoTOP-ABPP competition ratio,1.1
CCCCCCCCCCCCCCCC(=O)OCC(CSC[C@H](N)C(=O)N[C@@H](CO)C(=O)N[C@@H](CCCCN)C(=O)N[C@@H](CCCCN)C(=O)N[C@@H](CCCCN)C(=O)N[C@@H](CCCCN)C(=O)NCCCCCC(=O)N[C@@H](CCCCN)C(=O)N[C@@H](CC(C)C)C(=O)N[C@H](C(=O)N[C@@H](Cc1ccccc1)C(=O)N[C@@H](Cc1ccccc1)C(=O)N[C@@H](Cc1ccc2ccccc2c1)C(=O)O)C(C)C)OC(=O)CCCCCCCCCCCCCCC (some centres unmarked),"Amyloid-beta precursor protein, fibrillar amyloid-beta (APP, Homo sapiens, UniProt P05067)",TEM,,"2.0 eq, 5 h, fibril 6, with: APP 20 µM",,fibril diameter,125 nm
CC(=O)N[C@H](C(=O)N[C@@H](CCC(N)=O)C(=O)N[C@@H](CO)C(=O)N[C@@H](CC(=O)O)C(=O)COC(=O)c1c(C)cccc1C)C(C)(C)C,CASP8,"enzyme activity, inhibitor",,,,kinact/KI,1.43e+06 M⁻¹ s⁻¹
Cc1cc(C(=O)NCCNC(=O)c2cccc(COc3ccccc3C(N)=O)c2)n[nH]1,"Poly [ADP-ribose] polymerase 2 (PARP2, Homo sapiens, UniProt Q9UGN5)","enzyme activity, inhibitor",,5 nM,,inhibition,38%
C[Si](C)(C)C[C@H](CN)CC(=O)O,"Adenosine receptor A2b (ADORA2B, Homo sapiens, UniProt P29275)","ligand displacement, radioligand",,250 µM,,inhibition,-24%
CCCCCCCCCCCCC/C=C/C=O,"Trafficking protein particle complex subunit 5 (TRAPPC5, Homo sapiens, UniProt Q8IUR0)","competitive isoTOP-ABPP, measured: TRAPPC5 cysteine peptide",Ramos soluble proteome,"100 µM, with: iodoacetamide probe","relative to: DMSO over compound-treated, higher = stronger cysteine blockade",isoTOP-ABPP competition ratio,1.1
O=C(Cc1ccc(OCc2ccccc2)cc1)NC1(C(=O)O)CCN(C(=O)c2ccc(-c3cccc(Cl)c3)cc2)CC1,"Phosphatidylinositol 5-phosphate 4-kinase type-2 alpha (PIP4K2A, Homo sapiens, UniProt P48426)","enzyme activity, inhibitor",,10 µM,,activity vs control,111%
COC(=O)Nc1ccc2ccc(CNCc3ccc4ccc(NC(=O)OC)nc4n3)nc2n1,"T1, DNA, abasic bulge, mismatch",CSI-TOF mass spectrometry,,,,binding,no binding
C[C@@H](Nc1nc(N[C@H](C)C(F)(F)F)nc(-c2cccc(Cl)n2)n1)C(F)(F)F,"Isocitrate dehydrogenase [NADP] cytoplasmic (IDH1, Homo sapiens, UniProt O75874, R132C)",measured: 2-hydroxyglutarate,HT-1080,,,maximal inhibition,91%
O=C(NO)c1ccc(Cn2c3c(c4cc(Br)ccc42)SC(c2ccccc2)C3)s1 (racemic),"Histone deacetylase 8 (Schistosoma mansoni, UniProt A5H660)",X-ray crystallography,,"ligand-Lys20 side chain, C2-CE",,interatomic distance,3.86 Å
CCCCCC(O)/C=C/C=O (centres unmarked),"Exportin-2 (Homo sapiens, UniProt P55060)","competitive isoTOP-ABPP, measured: CSE1L cysteine peptide","proteome, soluble, MDA-MB-231","100 µM, with: iodoacetamide probe","relative to: DMSO over compound-treated, higher = stronger cysteine blockade",isoTOP-ABPP competition ratio,1.7
CC[C@H](C)[C@H](NC(=O)[C@@H](NC(=O)[C@H](CCCCN)NC(=O)[C@@H](NC(=O)CNC(=O)[C@@H](N)CCCNC(=N)N)[C@@H](C)O)C(C)C)C(=O)N[C@@H](CC(C)C)C(=O)N[C@@H](Cc1c[nH]cn1)C(=O)N[C@@H](CC(C)C)C(N)=O,"Microtubule-associated protein tau (MAPT, Homo sapiens, UniProt P10636)","fibril formation, ThT fluorescence",,"1-fold of tau, at plateau, with: wild-type tau 10 µM, heparin",relative to: untreated,ThT fluorescence,6 ± 3%
O=C1c2sc(-c3ccc(N4CCC(CO)CC4)nc3F)nc2CCN1c1cccnc1,"TAR DNA-binding protein 43, aggregated (TARDBP, Homo sapiens, UniProt Q13148)",radioligand binding,"human, FTLD-TDP type C sarkosyl-insoluble extract",26.56 nM,,specific binding,0.301 nM and 0.423 nM and 0.292 nM

# For quick reference, copied from above:
SMILES,target,test,system,conditions,how to read,measurement,result
CC(=O)N[C@H](C(=O)N[C@@H](CCC(N)=O)C(=O)N[C@@H](CO)C(=O)N[C@@H](CC(=O)O)C(=O)COC(=O)c1c(C)cccc1C)C(C)(C)C,CASP8,"enzyme activity, inhibitor",,,,kinact/KI,1.43e+06 M⁻¹ s⁻¹
Cc1cn(CC(=O)N(CCNC(=O)CN(CCNC(=O)CN(CCNC(=O)CN(CCNC(=O)CN(CCNC(=O)CN(CCNC(=O)CN(CCNC(=O)CN(CCN)C(=O)Cn2cnc3c(=O)[nH]c(N)nc32)C(=O)Cn2cnc3c(N)ncnc32)C(=O)Cn2cc(C)c(=O)[nH]c2=O)C(=O)Cn2cnc3c(=O)[nH]c(N)nc32)C(=O)Cn2cc(C)c(=O)[nH]c2=O)C(=O)Cn2cnc3c(=O)[nH]c(N)nc32)C(=O)Cn2cnc3c(N)ncnc32)CC(=O)NCCN(CC(=O)NCCOCCOCC(N)=O)C(=O)Cn2cnc3c(N)ncnc32)c(=O)[nH]c1=O,complementary DNA,"duplex formation, UV melting curve fit",PBS,"1 µM, fit parameter α 0.5",,Tm,42.2 ± 0.2 °C
OCC1OC(n2cnc3c(NCc4ccc(Br)s4)ncnc32)C(O)C1O (centres unmarked),"Equilibrative nucleoside transporter 1 (SLC29A1, Homo sapiens, UniProt Q99808)","binding, [3H]NBMPR radioligand binding",U-937 cells,,,Hill coefficient,0.78
C[n+]1cn(C2OC(COP(=O)(O)OP(=O)([O-])C(Cl)(Cl)P(=O)(O)OP(=O)(O)OCC3OC(n4cnc5c(=O)[nH]c(N)nc54)C(O)C3O)C(O)C2O)c2nc(N)nc(O)c21 (centres unmarked),"m7GpppX diphosphatase (DCPS, Homo sapiens, UniProt Q96C86)","substrate, HPLC",,"concentration not given, 15 min",,hydrolysis,0%
